Measurements pooled from the literature.
Lines come from different studies, so protocols differ. “And” joins repeats or separate records; there may be more than shown. ± gives the spread as reported.

For CC=C(C)C(=O)OC1C(O)C2OC(COC(=O)CCCCCCCCCC(CCCCC)OC3OC(C)C(OC(C)=O)C(O)C3O2)C1OC(=O)C=Cc1ccccc1 (centres unmarked), the IC50 was 0.0247 µM (NIH/3T3; cytotoxicity).
For CCCCc1ccc(S(=O)(=O)N2CC2C(=O)OC)cc1 (centres unmarked), the IC50 was 160 ± 17 µM (Balb/c 3T3 fibroblasts; cytotoxicity, neutral red uptake; DMEM with 5% FBS; 24 h).
The IC50 of CC[C@H](C)[C@H](N)C(=O)Oc1c(OC)ccc2c1[C@@]13CCN(C)[C@@H](C2)[C@H]1C=C(OC)C(=O)C3 is reported as over 100 µM (RAW264.7; cytotoxicity, MTT; 24 h).
With CCCCn1cc(C(=O)O)c(=O)c2cc(F)c(Nc3cccc(Cl)c3)c([N+](=O)[O-])c21 the IC50 was 49 µM and 49.1 µM (PANC-1; cell growth or viability, SRB).
NC(=O)C1CN1S(=O)(=O)c1ccc([N+](=O)[O-])cc1 (centres unmarked) has an IC50 of 20 ± 2 µM (Balb/c 3T3 fibroblasts; cytotoxicity, neutral red uptake; DMEM with 5% FBS; 24 h).
With CC(C)[C@@H](NC(=O)[C@@H](C)c1cccc(C(=O)c2ccccc2)c1)C(=O)N[C@H](CCC(=O)O)C(=O)N[C@@H](C(=O)N[C@H](CCC(=O)O)C(=O)O)C(C)C the IC50 was 278 µg/mL (rat arthritic fibroblast-like synoviocytes; 48 h).
With COc1cccc2c1C(=O)c1c(O)c3c(c(O)c1C2=O)C[C@@](O)(C(CO)=NNC(=O)CCCCCCCCCCNC(=O)COCCOCCNC(=O)[C@@H](CC(=O)O)NC(=O)[C@@H](CC(=O)O)NC(=O)[C@@H](CC(=O)O)NC(=O)[C@@H](CC(=O)O)NC(=O)[C@@H](CC(=O)O)NC(=O)[C@@H](CC(=O)O)NC(=O)[C@@H](CC(=O)O)NC(=O)[C@H](N)CC(=O)O)C[C@@H]3O[C@H]1C[C@H](N)[C@H](O)[C@H](C)O1 the IC50 was 0.39 µM (SAOS-2; cell growth or viability, CCK-8; 72 h).
The IC50 of COC1=C[C@@H]2[C@@H]3Cc4ccc(OC)c(OC(=O)c5cnc(C)cn5)c4[C@]2(CCN3C)CC1=O is reported as over 100 µM (RAW264.7; cytotoxicity, MTT; 24 h).
CCCCn1cc(C(=O)O)c(=O)c2cc(F)c(Nc3ccccc3Cl)c(N)c21 has an IC50 of 30 ± 4.87 µg/mL (PANC-1; cell growth, SRB; 72 h).
NC(=O)C1CN1S(=O)(=O)c1ccc(F)cc1F (centres unmarked) has an IC50 of 13 ± 1 µM (Balb/c 3T3 fibroblasts; cytotoxicity, neutral red uptake; DMEM with 5% FBS; 24 h).
CCCCn1cc(C(=O)O)c(=O)c2cc(F)c(Nc3ccccc3Cl)c([N+](=O)[O-])c21 gave an IC50 of 114 µM (PANC-1; cell growth or viability, SRB).
The IC50 of COC1=C[C@@H]2[C@@H]3Cc4ccc(OC)c(OC(=O)[C@H](Cc5ccccc5)NC(=O)OC(C)(C)C)c4[C@]2(CCN3C)CC1=O is reported as 29.6 ± 7.48 µM (RAW264.7; cytotoxicity, MTT; 24 h).
The IC50 of CCCc1ccc(S(=O)(=O)N2CC2C(=O)OC)cc1 (centres unmarked) is reported as 180 ± 6 µM (Balb/c 3T3 fibroblasts; cytotoxicity, neutral red uptake; DMEM with 5% FBS; 24 h).
The IC50 of CC(C)Cc1ccc(C(C)C(=O)[O-])cc1.CC(C)Cc1ccc(C(C)C(=O)[O-])cc1.[Cu+2].c1ccncc1.c1ccncc1 (centres unmarked) is reported as 72 µM (A549; cytotoxicity, MTT; 48 h).
COC1=C[C@@H]2[C@@H]3Cc4ccc(OC)c(OC(=O)CN(C)C(=O)OC(C)(C)C)c4[C@]2(CCN3C)CC1=O gave an IC50 of over 100 µM (RAW264.7; cytotoxicity, MTT; 24 h).
CCCCn1cc(C(=O)O)c(=O)c2cc(F)c(Nc3cccc(Cl)c3)c(N)c21 gave an IC50 of 35.8 ± 5.43 µg/mL (K562; cell growth, SRB; 72 h).
COC(=O)C1CN1S(=O)(=O)c1c(C)cc(C)cc1C (centres unmarked) has an IC50 of 200 ± 20 µM (Balb/c 3T3 fibroblasts; cytotoxicity, neutral red uptake; DMEM with 5% FBS; 24 h).
CCCCn1cc(C(=O)O)c(=O)c2cc(F)c3c(nnn3-c3ccccc3Cl)c21 gave an IC50 of 37.6 µM (PANC-1; cell growth or viability, SRB).
The IC50 of COc1cc(O)c2c(=O)c3c(O)c(-c4c(C)cc5c(c4O)C(=O)C4=C(O)C[C@H](OC)[C@@H](O)[C@]4(C)O5)c(C)cc3oc2c1OC is reported as 9.9 µM (NCI-H187; cell growth or viability, resazurin; 5 days).
COc1cccc2c1C(=O)c1c(O)c3c(c(O)c1C2=O)C[C@@](O)(C(CO)=NNC(=O)CCCCCCCCCCNC(=O)CCCCCCCCCCNC(=O)[C@H](CCCCNC(=O)COCCOCCNC(=O)[C@@H](CC(=O)O)NC(=O)[C@@H](CC(=O)O)NC(=O)[C@@H](CC(=O)O)NC(=O)[C@H](N)CC(=O)O)NC(=O)COCCOCCNC(=O)[C@@H](CC(=O)O)NC(=O)[C@@H](CC(=O)O)NC(=O)[C@@H](CC(=O)O)NC(=O)[C@H](N)CC(=O)O)C[C@@H]3O[C@H]1C[C@H](N)[C@H](O)[C@H](C)O1 has an IC50 of 0.61 µM (SAOS-2; cell growth or viability, CCK-8; 72 h).
The IC50 of CCc1ccc(S(=O)(=O)N2CC2C(=O)OC)cc1 (centres unmarked) is reported as 100 ± 7 µM (Balb/c 3T3 fibroblasts; cytotoxicity, neutral red uptake; DMEM with 5% FBS; 24 h).
O=c1[nH]c(=O)c2cccc(O)c2o1 gave an IC50 of 38.7 µM (NCI-H187; cytotoxicity).
For COC(=O)C1CN1S(=O)(=O)c1ccc(C(F)(F)F)cc1 (centres unmarked), the IC50 was 210 ± 30 µM (Balb/c 3T3 fibroblasts; cytotoxicity, neutral red uptake; DMEM with 5% FBS; 24 h).
CC(=O)O[C@H](CC(=O)O[C@@H]1COC(=O)c2csc(n2)[C@H](C(C)C)OC(=O)[C@@H](C)[C@H](CCCC(C)(Cl)Cl)OC(=O)c2csc1n2)[C@H](CC(C)C)NC(=O)[C@H](C(C)C)N(C)C has an IC50 of 0.0048 to 1.8 µM (H-460; MTT; 48 h, medium with 10% FBS).
For CCCCn1cc(C(=O)O)c(=O)c2cc(F)c3c(nnn3-c3cccc(Cl)c3)c21, the IC50 was 29.4 ± 3.68 µg/mL (T47D; cell growth, SRB; 72 h).
The IC50 of CNC(=O)C1CN1S(=O)(=O)c1ccc(C(C)(C)C)cc1 (centres unmarked) is reported as 28 ± 4 µM (Balb/c 3T3 fibroblasts; cytotoxicity, neutral red uptake; DMEM with 5% FBS; 24 h).
